Measurements collected from several papers.
Compare with care: the assays were run in different laboratories. Several values in a cell are separate wells, animals, samples, runs or records. ± gives the spread as reported.
Chain of UniProt Q05655 (whole entry, looked up): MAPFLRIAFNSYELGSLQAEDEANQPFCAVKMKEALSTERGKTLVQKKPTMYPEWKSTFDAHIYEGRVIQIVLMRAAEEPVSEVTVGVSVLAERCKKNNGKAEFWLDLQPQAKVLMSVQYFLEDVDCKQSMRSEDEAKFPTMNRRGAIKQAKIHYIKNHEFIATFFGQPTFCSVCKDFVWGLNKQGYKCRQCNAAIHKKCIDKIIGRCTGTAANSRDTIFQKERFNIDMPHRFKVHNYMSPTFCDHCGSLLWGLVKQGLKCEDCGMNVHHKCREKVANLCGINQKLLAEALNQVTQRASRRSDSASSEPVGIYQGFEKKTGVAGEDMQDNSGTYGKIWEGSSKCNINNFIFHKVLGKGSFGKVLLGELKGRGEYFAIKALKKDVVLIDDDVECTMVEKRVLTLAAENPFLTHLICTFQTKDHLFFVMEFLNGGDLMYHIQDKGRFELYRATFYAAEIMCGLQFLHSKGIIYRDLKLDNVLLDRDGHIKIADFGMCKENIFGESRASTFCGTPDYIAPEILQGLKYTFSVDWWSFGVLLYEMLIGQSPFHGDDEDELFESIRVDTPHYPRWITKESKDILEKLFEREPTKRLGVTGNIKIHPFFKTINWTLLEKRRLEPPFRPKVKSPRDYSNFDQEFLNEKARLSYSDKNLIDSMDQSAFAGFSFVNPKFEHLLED
Chain of UniProt Q13418 (whole entry, looked up): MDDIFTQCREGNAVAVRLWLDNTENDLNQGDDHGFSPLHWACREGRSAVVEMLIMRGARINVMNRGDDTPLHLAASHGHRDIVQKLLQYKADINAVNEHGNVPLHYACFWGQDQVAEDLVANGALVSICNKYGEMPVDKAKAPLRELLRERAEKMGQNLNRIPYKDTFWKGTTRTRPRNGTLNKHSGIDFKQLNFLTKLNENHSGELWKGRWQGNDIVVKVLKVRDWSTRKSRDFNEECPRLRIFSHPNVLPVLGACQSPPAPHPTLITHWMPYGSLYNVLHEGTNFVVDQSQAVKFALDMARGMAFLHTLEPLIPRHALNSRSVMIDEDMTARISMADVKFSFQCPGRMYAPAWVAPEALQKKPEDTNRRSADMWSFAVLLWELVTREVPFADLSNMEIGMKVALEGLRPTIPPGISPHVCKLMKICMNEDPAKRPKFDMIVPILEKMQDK
Chain of UniProt Q8NFV4 (whole entry, looked up): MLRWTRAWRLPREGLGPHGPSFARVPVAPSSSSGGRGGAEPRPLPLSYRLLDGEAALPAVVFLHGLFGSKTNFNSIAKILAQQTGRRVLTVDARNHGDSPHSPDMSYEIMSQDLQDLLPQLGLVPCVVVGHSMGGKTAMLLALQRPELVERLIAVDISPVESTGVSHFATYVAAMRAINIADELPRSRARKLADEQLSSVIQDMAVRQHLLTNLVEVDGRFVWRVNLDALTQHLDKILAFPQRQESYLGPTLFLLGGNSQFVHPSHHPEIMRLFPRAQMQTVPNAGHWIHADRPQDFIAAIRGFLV
Chain of UniProt P05091 (whole entry, looked up): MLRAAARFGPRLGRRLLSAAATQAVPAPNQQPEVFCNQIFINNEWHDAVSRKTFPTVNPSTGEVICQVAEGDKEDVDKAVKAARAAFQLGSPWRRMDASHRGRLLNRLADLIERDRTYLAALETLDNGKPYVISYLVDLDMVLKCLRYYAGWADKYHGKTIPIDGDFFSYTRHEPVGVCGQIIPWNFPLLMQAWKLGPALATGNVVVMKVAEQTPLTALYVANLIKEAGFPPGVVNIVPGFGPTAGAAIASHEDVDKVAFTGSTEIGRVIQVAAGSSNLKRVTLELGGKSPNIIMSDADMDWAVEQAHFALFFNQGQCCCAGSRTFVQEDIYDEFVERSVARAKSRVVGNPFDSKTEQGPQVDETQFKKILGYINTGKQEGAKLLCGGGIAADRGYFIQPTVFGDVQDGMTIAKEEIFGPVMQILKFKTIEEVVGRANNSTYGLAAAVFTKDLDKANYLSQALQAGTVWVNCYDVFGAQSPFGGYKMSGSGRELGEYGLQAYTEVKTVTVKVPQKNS

| Compound | tested on | assay | system | conditions | scale | measurement | result |
| --- | --- | --- | --- | --- | --- | --- | --- |
| O=C(c1ccc(Cl)cc1)N1CCN2C(=O)N(OC(=O)N3CCOc4ccccc43)C(=O)C2C1 (stereo not drawn) | ABHD11 (Homo sapiens, UniProt Q8NFV4) | MS-based ABPP | SW-620 conditioned medium | 10 µM, 1 h, 37 °C | baseline: compound over DMSO, lower = more inhibition | mean protein ratio | 1.11 |
| CC(c1ccccc1)(c1ccc(O)cc1)c1ccc(O)cc1 | HepG2 spheroids | Hoechst flow cytometry |  | 0.10 µM, 96 h |  | G2 phase cells | 18.1 ± 4.02% |
| C/C=C(/C)C(=O)O[C@H]1C(C)=C2[C@H]([C@@H]1OC(=O)CCCCCCC)[C@@](C)(OC(C)=O)C[C@H](OC(=O)CCC)[C@@]1(O)[C@H]2OC(=O)[C@@]1(C)O | HEK-293T | RNA-seq GSEA, refers to: Hallmark glycolysis |  | 500 nM, 6 h | direction not given | normalized enrichment score | 1.95 |
| COc1ccc(N2C(=O)N(c3c(C)cccc3Cl)Cc3cnc(Nc4ccc(C5CCN(C)CC5)cc4OC)nc32)nc1 | PRKCD (Homo sapiens, UniProt Q05655) | kinase activity, inhibitor |  | 0.5 µM, kinase PKC-DELTA |  | inhibition | 3.44% |
| C[C@H]1CN(c2n[nH]c3nc(N[C@H]4CC[C@H](NS(=O)(=O)CCC(F)(F)F)CC4)ncc23)CCO1 | ILK (Homo sapiens, UniProt Q13418) | inhibitor, Kinobeads competition profiling |  | 0.8 µM | baseline: vehicle | relative abundance | 1.15 |
| Cc1ccccc1O | THP-1 | pyroptotic LDH release |  | 2 µM, 40 min, together with: LPS then nigericin |  | inhibition | -3.02% |
| Nc1ncnc2c1ncn2[C@@H]1O[C@@H]2COP(=O)(O)O[C@H]3[C@@H](O)[C@H](n4cnc5c(=O)[nH]cnc54)O[C@@H]3COP(=O)(O)O[C@H]2[C@H]1O | HFF-1 | RNA sequencing Reactome analysis, refers to: Reactome R-HSA-9704331 defective HRR (PALB2, BRCA1 binding) |  | together with: West Nile virus infection | baseline: West Nile virus infected cells, upregulated pathway | pathway fold enrichment | 7.67 |
| COc1cc(Nc2ncc(F)c(Nc3ccc4c(n3)NC(=O)C(C)(C)O4)n2)cc(OC)c1OC | ALDH2 (Homo sapiens, UniProt P05091) |  |  | mitochondrial |  | IC50 | > 10000 nM |
| COc1c(C)c2c(c(O)c1C/C=C(\C)CCC(=O)O)C(=O)OC2 | Ramos | cell proliferation | blood cancer |  |  | IC50 | 41.7 nM |
| Cc1cnc2ccc3c(nc(N)n3C)c2n1 | BALB/c 3T3 | colony forming efficiency |  | 50 µM |  | colony number | 89 colonies per plate and 93 colonies per plate |
| Cc1cc(C(C)(C)c2ccc(O)c(C)c2)ccc1O | HepG2 spheroids | Hoechst flow cytometry |  | 10 µM, 24 h |  | G2 phase cells | 17.8 ± 4.56% |
| Cc1nn(-c2nc3ccc(Cl)c(Cl)c3[nH]2)c(O)c1C1OC(=O)c2ccccc21 (stereo not drawn) | RAW-ISG | CCK-8 |  | 3 µM |  | viability | 106% and 107% and 109% and 112% |
| CC(=O)O[C@H]1CC[C@@]2(C)[C@H](CC[C@@H]3[C@@H]2CC[C@]2(C)[C@@H](C4=CC(=O)OC4)[C@@H](OC(C)=O)C[C@]32O)C1 | human iPSC cardiomyocytes | plate-normalised |  | concentration not given, hit retest | baseline: vehicle controls, SDs below control | MyBP-C level change | 11.9 SD |
| Cn1cncc1C1=CN(c2ncnc3[nH]cnc23)CCS1 | TK-10 |  |  | renal cancer |  | CC50 | > 200000 nM |
| CCCC[C@@H]1NC(=O)[C@H](Cc2ccc(O)cc2)NC(=O)[C@@H]2CCCN2C(=O)[C@H](CC(=O)O)NC(=O)[C@H](C)NC(=O)[C@H](Cc2ccccc2)NC(=O)[C@@H]2CSCCC(=O)N3CN(CN(C3)C(=O)CCSC[C@@H](C(N)=O)NC1=O)C(=O)CCSCCC(=O)N[C@@H](CC(C)(C)C)C(=O)N1CCC[C@H]1C(=O)N[C@@H](CCC(=O)O)C(=O)N[C@H](CCCCNC(=O)CCc1cn(CCOCCOCCOCCN(CCOCCOCCOCCC(=O)N[C@H]3CSCCC(=O)N4CN5CN(C4)C(=O)CCSC[C@H](NC(=O)[C@@H](CC(=O)O)NC(=O)[C@H](Cc4cccc6ccccc46)NC(=O)[C@@H]4CCCN4C3=O)C(=O)N[C@@H](CCSC)C(=O)N[C@@H](CCCCNC(=N)N)C(=O)N[C@@H](CC(=O)O)C(=O)N[C@@H](Cc3c[nH]c4ccccc34)C(=O)N[C@@H](CO)C(=O)N[C@@H]([C@@H](C)O)C(=O)N3CCC[C@H]3C(=O)N3C[C@H](O)C[C@H]3C(=O)N[C@@H](Cc3c[nH]c4ccccc34)C(=O)N[C@H](C(N)=O)CSCCC5=O)CCOCCOCCOCCn3cc(CCC(=O)NCCCC[C@H]4NC(=O)[C@H](CCC(=O)O)NC(=O)[C@@H]5CCCN5C(=O)[C@H](CC(C)(C)C)NC(=O)CCSCCC(=O)N5CN6CN(C5)C(=O)CCSC[C@H](NC(=O)[C@H](Cc5ccc(O)cc5)NC(=O)[C@@H]5CCCN5C4=O)C(=O)N[C@@H](Cc4ccccc4)C(=O)N[C@@H](C)C(=O)N[C@@H](CC(=O)O)C(=O)N4CCC[C@H]4C(=O)N[C@@H](Cc4ccc(O)cc4)C(=O)N[C@@H](CCCC)C(=O)N[C@H](C(N)=O)CSCCC6=O)nn3)nn1)C(=O)N1CCC[C@H]1C(=O)N[C@@H](Cc1ccc(O)cc1)C(=O)N2 | human PBMC with HT-1376 coculture | IL-2 secretion |  | together with: anti-CD3 |  | EC50 | 4.4 ± 1.9 nM |
| CCCC(CCC)C(=O)O | human coronavirus OC43 | virus-induced cell killing | MRC-5 | maximum over 10 doses |  | maximum inhibition | 0.567% |
| CC1=C(O)C(=O)C=C2C1=CC=C1[C@@]2(C)CC[C@@]2(C)[C@@H]3C[C@](C)(C(=O)O)CC[C@]3(C)CC[C@]12C | human iPSC cardiomyocytes | plate-normalised |  | concentration not given, hit retest | baseline: vehicle controls, SDs below control | MyBP-C level change | 14.2 SD |
| CCn1cc(-c2cc(Cn3ccoc3=N)cc3c2CCN([C@@H](C)c2cc(OC)ccn2)C3=O)c(C(F)(F)F)n1 | T47D | cell growth, inhibitor |  | 120 h |  | EC50 | 156 nM |
| Oc1ccc(C2(c3ccc(O)cc3)c3ccccc3-c3ccccc32)cc1 | HepG2 spheroids | Hoechst flow cytometry |  | 10 µM, 24 h |  | G1 phase cells | 71.5 ± 1.6% |
| Cc1nc(-c2ccc(OCC(C)C)c(C#N)c2)sc1C(=O)O | human coronavirus OC43 | virus-induced cell killing | MRC-5 | screen |  | maximum inhibition | 21.1% |

| Compound | tested on | assay | system | conditions | scale | measurement | result |
| --- | --- | --- | --- | --- | --- | --- | --- |
| Oc1ccc(C(c2ccc(O)cc2)(C(F)(F)F)C(F)(F)F)cc1 | HepG2 spheroids | Hoechst flow cytometry |  | 0.10 µM, 96 h |  | G1 phase cells | 70.7 ± 4.39% |
| CC[C@H](C)[C@@H]1NC(=O)[C@@H]2CCCN2C(=O)[C@H](CC(C)C)NC(=O)[C@H](CC(C)C)NC(=O)CNC(=O)[C@@H](NC(=O)[C@@H](NC(=O)[C@H](CC(=O)O)NC(=O)CNC(=O)[C@@H](NC(=O)[C@H](C)NC(=O)CNC(=O)[C@H](CCCCN)NC(=O)[C@H](CC(C)C)NC(=O)[C@H](CC(C)C)NC(=O)[C@H](CCCCN)NC(=O)CNC(=O)[C@@H](NC(=O)[C@@H](N)CC(C)C)C(C)C)C(C)C)C(C)C)CSSC[C@@H](C(=O)O)NC1=O |  | RNA-seq, refers to: Hck mRNA | mouse traumatic brain injury, frontal cortex and hippocampus | dose not given | baseline: TBI plus compound vs TBI | log2 fold change | -1.98 |
| O=C1[O][Pt]2([NH][C@@H]3CCCC[C@H]3[NH]2)[O]C1=O | LoVo resistant | MTT |  |  | baseline: resistant over parental IC50 | resistance factor | 18.3 |
| CC(C)N1CCC(NC2CCN(c3cccc(-c4cc5cc(F)ccc5[nH]4)c3)CC2)CC1 | OVCAR-5 |  |  |  |  | CC50 | 7640 nM |
| CCN(CC)c1ccc(C=NNC(=O)CSc2nc3ccccc3c(=O)n2Cc2ccc(S(N)(=O)=O)cc2)c(O)c1 | NCI/ADR-RES | NCI five-dose screen |  |  |  | CC50 | > 100000 nM |
| COc1ccc2c(c1)[nH]c1c(C)nccc12 | DU-145 | bisulfite pyrosequencing, refers to: RASSF1A promoter CpG site 29 |  | concentration not given | baseline: vehicle | methylation reduction | 0.07% |
| Oc1cc(Cl)ccc1Oc1ccc(Cl)cc1Cl | HepG2 | high content imaging, refers to: cell count |  | 24 h, distribution mode 1 |  | point of departure | 5.13 µM |
| CN1CCN(C2(CNC3CCN(c4cccc(-c5cc6cc(F)ccc6[nH]5)c4)CC3)CCC2)CC1 | OVCAR-5 |  |  |  |  | GI50 | 1750 nM |
| COc1cc(CCC[P+](c2ccccc2)(c2ccccc2)c2ccccc2)c(OC)c2c1OCO2.[I-] | SW-620 | SRB |  |  |  | TGI | -4.94 log M |
| N[C@@H]1CN2CCC1CC2 | THP-1 | pyroptotic LDH release |  | 2 µM, 40 min, together with: LPS then nigericin |  | inhibition | 8.85% |
| O=C1CCP(=S)(c2ccccc2)CC1 | SW-620 | ELISA |  | IC50, 72 h |  | IL-6 level | 0.3 ± 0.01 pg/mL |
| Nc1ncc(-c2nc(N3CCOCC3)nc(N3CCOCC3)n2)c(C(F)F)n1 | SUP-T1 |  |  | 72 h |  | GI50 | 276 nM |
| Nc1ccc(Cl)cc1 | THP-1 | pyroptotic LDH release |  | 2 µM, 40 min, together with: LPS then nigericin |  | inhibition | 15.6% |
| COC[C@@H]([C@H](O)[C@H](O)C(=O)NCC[C@H](C)c1nc(/C=C/C[C@@H]2O[C@]3(C[C@@H](O)[C@@H]2C)O[C@H]([C@H](C[C@H](O)[C@H](C)[C@H](O)[C@H](C)/C=C(C)/C(C)=C/C=C/C(C)=C\C#N)OC)[C@H](OP(=O)(O)O)C3(C)C)co1)N(C)C | MDA-MB-231 BAX/BAK siRNA knockdown | CellTiter-Glo |  | concentration not given | baseline: normalised luminescence | viability | 54% and 37.2% |
| CC1(C(=O)O)C2CCC(O2)C1(C)C(=O)O (stereo not drawn) | HEK293T ATF4-FLuc reporter | ATF4 reporter gene, activator, luciferase reporter |  |  |  | EC50 | > 9960 nM |
| COc1c(CCC[P+](c2ccccc2)(c2ccccc2)c2ccccc2)cc2c(c1OC)OCO2.[I-] | COLO 205 | SRB |  |  |  | TGI | -5.24 log M |
| COc1cc2c(Oc3ccc4[nH]c(C)cc4c3F)ccnc2cc1OCC1(N)CC1 |  |  | paediatric refractory sarcoma patients | 12 mg |  | gingival bleeding incidence | 0% |
| O=c1cc(-c2ccccc2)oc2c(O)c(O)ccc12 | SH-SY5Y Aβ-GFP cells | Aβ folding |  | 1 to 5 µM | baseline: untreated induced cells | GFP fluorescence | 116 to 127% |
| CCC(=O)N(CCC#N)c1ccc2c(c1)OCCN2CC(=O)NCC(=O)Nc1ccc(C(=O)NCCCCCCC(=O)NO)cc1.O=C(O)C(F)(F)F | U-87 MG | cell viability, MTT |  | up to 50 µM |  | EC50 | no effect |

Repeated from above:
| Compound | tested on | assay | system | conditions | scale | measurement | result |
| --- | --- | --- | --- | --- | --- | --- | --- |
| C[C@H]1CN(c2n[nH]c3nc(N[C@H]4CC[C@H](NS(=O)(=O)CCC(F)(F)F)CC4)ncc23)CCO1 | ILK (Homo sapiens, UniProt Q13418) | inhibitor, Kinobeads competition profiling |  | 0.8 µM | baseline: vehicle | relative abundance | 1.15 |
| CC1(C(=O)O)C2CCC(O2)C1(C)C(=O)O (stereo not drawn) | HEK293T ATF4-FLuc reporter | ATF4 reporter gene, activator, luciferase reporter |  |  |  | EC50 | > 9960 nM |
| COc1ccc(N2C(=O)N(c3c(C)cccc3Cl)Cc3cnc(Nc4ccc(C5CCN(C)CC5)cc4OC)nc32)nc1 | PRKCD (Homo sapiens, UniProt Q05655) | kinase activity, inhibitor |  | 0.5 µM, kinase PKC-DELTA |  | inhibition | 3.44% |
| CCC(=O)N(CCC#N)c1ccc2c(c1)OCCN2CC(=O)NCC(=O)Nc1ccc(C(=O)NCCCCCCC(=O)NO)cc1.O=C(O)C(F)(F)F | U-87 MG | cell viability, MTT |  | up to 50 µM |  | EC50 | no effect |
